Results from different studies.
Compare with care: the assays were run in different laboratories. Several values in a cell are separate wells, animals, samples, runs or records. Numbers after ± are the reported error.

SMILES | target or system | assay | test system | conditions | scale | endpoint | result
CCc1cc(C(=O)NC)c2nccc(N3CCc4c(cc(Cn5ccnc5)cc4-c4cn(C)nc4C(F)(F)F)C3=O)c2c1 |  |  | Sprague Dawley rats | oral, 100 mg/kg twice daily, 7 days | relative to: vehicle | blood TBIL change | -15.6%
Cn1cc(-c2ccc(-c3cncc(Cl)c3N3CCC4(CCNC4=O)CC3)cc2)cn1 | COLO 205 | gene expression, microarray, refers to: HIST2H4A mRNA |  | concentration not given, 2 h | relative to: untreated cells | log2 fold change | -2.49
O=C(Nc1nc2cccc(-c3ccc(CN4CCS(=O)(=O)CC4)cc3)n2n1)C1CC1 |  | refers to: joint swelling | human rheumatoid arthritis patients | oral, 30 mg once daily, 4 weeks, regardless of relatedness |  | treatment-emergent adverse events | 0%
Cc1cc([C@H]2C[C@H]3[C@@H](CF)SC(N)=N[C@@]3(c3ccc(F)cc3F)CO2)on1 |  |  | male 129/SVE mouse, plasma | subcutaneous, 100 mg/kg, 1 h |  | plasma concentration | 14300 nM
CCOCc1nc(O)c(-c2nnc(Cc3ccc(Cl)cn3)o2)c(O)c1-c1c(OC)cccc1OC |  |  | anaesthetised rat, plasma | intravenous infusion, 100 µg/kg/min, 15 min |  | plasma concentration | 15000 ± 220 nM
Cc1cc(Nc2ccc(S(F)(F)(F)(F)F)cc2)n2nc(C(C)(F)F)nc2n1 | Plasmodium vivax | 12-lead Holter ECG | human malaria patients | oral, 800 mg, QTc above 500 ms |  | patients with QTcF above threshold | 0%
COc1ccc2c(c1)CN(C(=O)CCN1CCC(Cc3ccccc3)CC1)CC[S@@+]2[O-] |  |  | anesthetized male beagle dogs, plasma | intravenous, 2 mg/kg total over 30 min, end of infusion |  | plasma concentration | 712 ng/mL
COc1cccc(-c2n[nH]c(SCc3ccccn3)n2)c1OC |  |  | Sprague-Dawley rats, both sexes | oral dietary, 100 mg/kg/day, day 7, 12 h |  | plasma concentration | 6240 ng/mL
Cc1c(C(=O)O)ccc2c3n(nc12)[C@@H]1[C@H](C3)N(CC2CC2)[C@@]2(C(=O)Nc3cc(Cl)ccc32)[C@H]1c1cccc(Cl)c1F |  |  | female BALB/c nude mice, plasma | oral, 1 mg/kg twice daily, 14 h, SJSA-1 tumour-bearing |  | plasma concentration | 1240 nM and 632 nM and 822 nM and 1230 nM
C[C@@H](O)[C@H]1C(=O)N2C(C(=O)O)=C(S[C@@H]3CN[C@H](C(=O)N(C)C)C3)[C@H](C)[C@H]12 |  |  | BALB/c mouse, male, plasma | intraperitoneal, dose not given, 10 h, together with: combination treatment |  | plasma concentration | 2560 ng/mL
C[C@@H]1CCO[C@H]2Cn3cc(C(=O)NCc4ccc(F)cc4F)c(=O)c(O)c3C(=O)N12 |  | population PK, post-hoc | children aged 0.17 to 2 years, 6 to <10 kg, plasma | oral, 10 mg dispersible tablet, 24 h, steady state, geometric mean |  | plasma concentration | 853 ng/mL
CNCCOC12CC3(C)CC(C)(CC(Cn4ncc(-c5ccc(N6CCc7cccc(C(=O)Nc8nc9ccccc9s8)c7C6)nc5C(=O)O)c4C)(C3)C1)C2 |  |  | anaesthetised male beagle dogs | intravenous bolus, 0.03 mg/kg, 10 min |  | plasma concentration | 36 ± 0.5 ng/mL
CCCCCN1C[C@H](O)[C@@H](O)[C@H](O)[C@@H]1CO |  | LC-MS/MS | mouse Hexb-/- male, plasma | 30 mg/kg/day, geometric mean |  | plasma concentration | 205 ng/mL

Excerpt of the above:
SMILES | target or system | assay | test system | conditions | scale | endpoint | result
Cc1c(C(=O)O)ccc2c3n(nc12)[C@@H]1[C@H](C3)N(CC2CC2)[C@@]2(C(=O)Nc3cc(Cl)ccc32)[C@H]1c1cccc(Cl)c1F |  |  | female BALB/c nude mice, plasma | oral, 1 mg/kg twice daily, 14 h, SJSA-1 tumour-bearing |  | plasma concentration | 1240 nM and 632 nM and 822 nM and 1230 nM
